Measurements gathered from unrelated publications.
Protocols differ between the studies behind these lines.
Organism: Escherichia coli

| SMILES | test | system | conditions | how to read | MIC |
| --- | --- | --- | --- | --- | --- |
| C[C@@H](O)[C@H]1C(=O)N2C(C(=O)O)=C(S[C@@H]3CN[C@H](CNS(N)(=O)=O)C3)[C@H](C)[C@H]12 | – | BL21(DE3) carrying Ftu-1 | – | – | < 0.09 µg/mL |
| CC(C)CC1NC(=O)C(C(=O)NC(C(=O)NC2C(=O)N3C2SC(C)(C)C3C(=O)O)c2ccccc2)=C1O (centres unmarked) | broth microdilution | JW0790-2 fiu deletion mutant | ferric iron uptake gene | – | 25 µg/mL |
| CC[C@H](C)[C@H](NC(=O)CNC(=O)[C@H](CC(=O)O)NC(=O)[C@H](CCCNC(=N)N)NC(=O)[C@@H](NC(=O)[C@H](CC(N)=O)NC(=O)[C@H](CCCNC(=N)N)NC(=O)CNC(=O)[C@@H](NC(=O)[C@H](CCC(=O)O)NC(=O)[C@H](CCC(=O)O)NC(=O)[C@@H](NC(=O)[C@H](CCCCN)NC(=O)[C@H](CCCCN)NC(=O)[C@H](Cc1ccccc1)NC(=O)[C@@H](NC(=O)[C@H](CCCCN)NC(=O)[C@H](Cc1c[nH]c2ccccc12)NC(=O)[C@@H](N)CCCNC(=N)N)[C@@H](C)CC)[C@@H](C)CC)C(C)C)C(C)C)C(=O)N[C@H](C(=O)N[C@@H](CCCCN)C(=O)N[C@@H](C)C(=O)NCC(=O)N1CCC[C@H]1C(=O)N[C@@H](C)C(=O)N[C@H](C(=O)N[C@@H](C)C(=O)N[C@H](C(=O)N[C@H](C(=O)NCC(=O)N[C@@H](CCC(N)=O)C(=O)N[C@@H](C)C(=O)N[C@@H](C)C(=O)N[C@H](C(=O)N[C@H](C(=O)N[C@H](C(=O)N[C@@H](CCCCN)C(N)=O)C(C)C)C(C)C)[C@@H](C)O)C(C)C)C(C)C)C(C)C)[C@@H](C)CC | – | KCTC 1682, Mueller-Hinton broth | 16 h, 37 °C | growth inhibition over 99% | 2 µM |
| CC[C@H](C)[C@H](NC(=O)[C@H](CCCNC(=N)N)NC(=O)[C@H](CCCNC(=N)N)NC(=O)[C@H](CCCNC(=N)N)NC(=O)[C@H](CCCNC(=N)N)NC(=O)[C@H](CCCNC(=N)N)NC(=O)[C@@H](N)CCCNC(=N)N)C(=O)N[C@@H](CO)C(=O)N[C@@H](Cc1ccccc1)C(=O)N[C@@H](CC(C)C)C(=O)NCC(=O)N[C@@H](CO)C(=O)N[C@@H](CCCCN)C(=O)N[C@H](C(=O)N[C@H](C(=O)N[C@H](C(=O)N[C@@H](CC(C)C)C(=O)N[C@@H](CC(C)C)C(=O)N[C@@H](CCCCN)C(=O)N[C@@H](CCCNC(=N)N)C(=O)N[C@@H](CCCNC(=N)N)C(=O)N[C@@H](CCCNC(=N)N)C(=O)N[C@@H](CCCNC(=N)N)C(=O)N[C@@H](CCCNC(=N)N)C(N)=O)C(C)C)C(C)C)C(C)C | checkerboard | – | 24 h, 37 °C, alone, azithromycin plate | – | 4 µM |
| CC[C@H](C)[C@H](NC(=O)CNC(=O)[C@H](CC(=O)O)NC(=O)[C@H](CCCNC(=N)N)NC(=O)[C@@H](NC(=O)[C@H](CC(N)=O)NC(=O)[C@H](CCCNC(=N)N)NC(=O)CNC(=O)[C@@H](NC(=O)[C@H](CCCCN)NC(=O)[C@H](CCC(=O)O)NC(=O)[C@@H](NC(=O)[C@H](CCCCN)NC(=O)[C@H](CCCCN)NC(=O)[C@H](Cc1ccccc1)NC(=O)[C@@H](NC(=O)[C@H](CCCCN)NC(=O)[C@H](Cc1c[nH]c2ccccc12)NC(=O)[C@@H](N)CCCNC(=N)N)[C@@H](C)CC)[C@@H](C)CC)C(C)C)C(C)C)C(=O)N[C@H](C(=O)N[C@@H](CCCCN)C(=O)N[C@@H](C)C(=O)N1CCC[C@H]1C(=O)N1CCC[C@H]1C(=O)N[C@@H](C)C(=O)N[C@H](C(=O)N[C@@H](C)C(=O)N[C@H](C(=O)N[C@H](C(=O)NCC(=O)N[C@@H](CCC(N)=O)C(=O)N[C@@H](C)C(=O)N[C@@H](C)C(=O)N[C@H](C(=O)N[C@H](C(=O)N[C@H](C(=O)N[C@@H](CCCCN)C(N)=O)C(C)C)C(C)C)[C@@H](C)O)C(C)C)C(C)C)C(C)C)[C@@H](C)CC | – | KCTC 1682, Mueller-Hinton broth | 16 h, 37 °C | growth inhibition over 99% | 2 µM |
| CNC(C)[C@@H]1CC[C@@H](N)[C@@H](O[C@H]2[C@H](O)[C@@H](O[C@H]3OC[C@](C)(O)[C@H](NC)[C@H]3O)[C@H](N)C[C@@H]2N)O1 (some centres unmarked) | broth microdilution | G92 | 18 h | – | 64 µg/mL |
| CC[C@H](C)[C@H](N)C(=O)N[C@@H](CC(C)C)C(=O)NCC(=O)N[C@@H](CCC(=O)O)C(=O)N[C@H](C(=O)N[C@@H](Cc1c[nH]c2ccccc12)C(=O)N[C@@H](CCCCN)C(=O)NCC(=O)N[C@H](C(=O)N[C@@H](CCCCN)C(=O)N[C@@H](CC(=O)O)C(=O)N[C@H](C(=O)N[C@@H](CC(C)C)C(N)=O)[C@@H](C)CC)[C@@H](C)CC)[C@@H](C)CC | broth microdilution | ATCC 25922 | added: human serum 10% | – | > 100 µM |
| CC[C@H](C)[C@H](NC(=O)CN)C(=O)N[C@@H](C)C(=O)N[C@@H](CCCCN)C(=O)N[C@@H](C)C(=O)N[C@H](C(=O)N[C@@H](CCCCN)C(=O)N[C@@H](CCCCN)C(=O)N[C@H](C(=O)N[C@@H](C)C(=O)N[C@@H](CCCCN)C(=O)N[C@@H](C)C(=O)N[C@@H](CC(C)C)C(=O)NCC(N)=O)[C@@H](C)CC)[C@@H](C)CC | – | ATCC 25922, Mueller-Hinton broth | 12 h, 37 °C | – | 2 µg/mL |
| CC1(C)CC[C@]2(C(=O)O)CC[C@]3(C)C(=CC[C@@H]4[C@@]5(C)CC[C@H](O)C(C)(C)[C@@H]5CC[C@]43C)[C@@H]2C1 | – | BL21 pET28a-SP-NDM-1 | – | – | 512 µg/mL |
| CCCCCCC/C=C/C(=O)N1C(=O)/C(=C(\O)CCCC)C(=O)C1CC(C)C (centres unmarked) | – | K12 ΔtolC | – | – | 100 µg/mL |
| CC[C@H](C)[C@H](NC(=O)CNC(=O)[C@H](CC(=O)O)NC(=O)[C@H](CCCNC(=N)N)NC(=O)[C@@H](NC(=O)[C@H](CC(N)=O)NC(=O)[C@H](CCCNC(=N)N)NC(=O)CNC(=O)[C@@H](NC(=O)[C@H](CCCCN)NC(=O)[C@H](CCCNC(=N)N)NC(=O)[C@@H](NC(=O)[C@H](CCCCN)NC(=O)[C@H](CCCCN)NC(=O)[C@H](Cc1ccccc1)NC(=O)[C@@H](NC(=O)[C@H](CCCCN)NC(=O)[C@H](Cc1c[nH]c2ccccc12)NC(=O)[C@@H](N)CCCNC(=N)N)[C@@H](C)CC)[C@@H](C)CC)C(C)C)C(C)C)C(=O)N[C@H](C(=O)N[C@@H](CCCCN)C(=O)N[C@@H](C)C(=O)NCC(=O)N1CCC[C@H]1C(=O)N[C@@H](C)C(=O)N[C@H](C(=O)N[C@@H](C)C(=O)N[C@H](C(=O)N[C@H](C(=O)NCC(=O)N[C@@H](CCC(N)=O)C(=O)N[C@@H](C)C(=O)N[C@@H](C)C(=O)N[C@H](C(=O)N[C@H](C(=O)N[C@H](C(=O)N[C@@H](CCCCN)C(N)=O)C(C)C)C(C)C)[C@@H](C)O)C(C)C)C(C)C)C(C)C)[C@@H](C)CC | – | KCTC 1682, Mueller-Hinton broth | 16 h, 37 °C | growth inhibition over 99% | 2 µM |
| C[C@@H](O)[C@H]1C(=O)N2C(C(=O)O)=C(S[C@@H]3CN[C@H](C(=O)N(C)C)C3)[C@H](C)[C@H]12 | – | – | – | – | 32 µg/mL |
| CC[C@H](C)[C@H](NC(=O)[C@H](CCCCN)NC(=O)[C@H](CCCCN)NC(=O)[C@H](Cc1ccccc1)NC(=O)[C@@H](NC(=O)[C@@H](NC(=O)[C@H](CCCNC(=N)N)NC(=O)[C@H](Cc1ccccc1)NC(=O)[C@@H](NC(=O)[C@H](CCCCN)NC(=O)[C@H](CCCCN)NC(=O)[C@@H](N)CCSC)[C@@H](C)CC)C(C)C)[C@@H](C)CC)C(=O)N[C@@H](CC(C)C)C(=O)N[C@@H](CCCCN)C(=O)N[C@@H](CCCNC(=N)N)C(=O)N[C@@H](CC(C)C)C(=O)N[C@H](C(=O)N[C@H](C(=O)O)C(C)C)[C@@H](C)CC | – | ATCC 25922 | 16 to 18 h | – | 8 µg/mL |
| CC(C)(O/N=C(\C(=O)N[C@@H]1C(=O)N2C(C(=O)[O-])=C(C[n+]3ccccc3)CS[C@H]12)c1csc(N)n1)C(=O)O | – | DH5α cloned blaKPC-144 | – | – | 32 µg/mL |
| CC(C)C[C@H](NC(=O)[C@H](CCCCN)NC(=O)[C@H](Cc1ccccc1)NC(=O)[C@@H](NC(=O)[C@H](CCCCN)NC(=O)CNC(=O)[C@H](CC(C)C)NC(=O)[C@@H](N)Cc1ccccc1)C(C)C)C(=O)N[C@@H](C)C(=O)N[C@@H](CO)C(=O)N[C@@H](CCCCN)C(=O)N[C@H](C(=O)N[C@@H](Cc1ccccc1)C(=O)N[C@@H](CCCCN)C(=O)N[C@@H](C)C(=O)N[C@H](C(=O)N[C@@H](Cc1ccccc1)C(=O)NCC(=O)N[C@@H](CCCCN)C(=O)N[C@H](C(=O)O)C(C)C)C(C)C)C(C)C | broth dilution | K12 BW25113 | 18 h, 37 °C | – | 6 µM |
| CC1NC(=O)C(C(=O)NC(C(=O)NC2C(=O)N3C2SC(C)(C)C3C(=O)O)c2ccccc2)=C1O (centres unmarked) | broth microdilution | isolate IU, CTX-M-14, TEM-1 | no clavulanic acid | – | > 200 µg/mL |
| O=C(O)CN(CC(=O)O)CC(=O)O | – | ATCC 25922, no carbapenemase | 32 µg/mL, MIC of meropenem, added: meropenem | – | ≤ 0.0625 µg/mL |
| CC[C@H](C)[C@H](NC(=O)[C@H](C)NC(=O)[C@H](CCCNC(=N)N)NC(=O)[C@H](CCCNC(=N)N)NC(=O)[C@H](CCCNC(=N)N)NC(=O)[C@H](CCCNC(=N)N)NC(=O)[C@H](CCCNC(=N)N)NC(=O)[C@@H](N)CCCNC(=N)N)C(=O)N[C@@H](CO)C(=O)NCC(=O)N[C@@H](CO)C(=O)N[C@@H](CC(C)C)C(=O)N[C@H](C(=O)N[C@H](C(=O)N[C@@H](CC(C)C)C(=O)N[C@@H](Cc1ccccc1)C(=O)NCC(=O)N[C@@H](Cc1ccc(O)cc1)C(N)=O)[C@@H](C)O)C(C)C | broth microdilution | ATCC 25922 | highest value reported | – | 4 µM |
| CC[C@H](C)[C@H](N)C(=O)N[C@@H](CCCNC(=N)N)C(=O)N[C@H](C(=O)N[C@@H](Cc1c[nH]c2ccccc12)C(=O)N[C@@H](Cc1c[nH]c2ccccc12)C(=O)N[C@@H](CCCCN)C(=O)N[C@H](C(=O)N[C@H](C(=O)N[C@@H](CCCNC(=N)N)C(=O)N[C@@H](CCCCN)C(=O)N[C@@H](Cc1c[nH]c2ccccc12)C(=O)N[C@@H](CCCCN)C(=O)N[C@@H](C)C(=O)N[C@H](C(=O)N[C@@H](Cc1c[nH]c2ccccc12)C(=O)N[C@@H](Cc1c[nH]cn1)C(N)=O)[C@@H](C)CC)C(C)C)[C@@H](C)CC)C(C)C | broth dilution | ATCC 25922, Mueller-Hinton broth | 24 h, 37 °C | – | 25 µM |
| CC[C@H](C)[C@H](NC(=O)[C@H](CC(C)C)NC(=O)[C@H](CCCNC(=N)N)NC(=O)[C@@H](N)CCCNC(=N)N)C(=O)N[C@@H](CCCNC(=N)N)C(=O)N[C@H](C(=O)N[C@@H](CCCCN)C(=O)N[C@H](C(=O)NCC(=O)N1CCC[C@H]1C(=O)N[C@H](C(=O)N[C@H](C(=O)N[C@@H](Cc1ccc(O)cc1)C(=O)N[C@@H](CCCCN)C(=O)N[C@@H](Cc1ccc(O)cc1)C(=O)N[C@@H](Cc1ccccc1)C(=O)N[C@@H](CCCCN)C(=O)N[C@@H](CCCCN)C(=O)N[C@@H](CCC(N)=O)C(=O)N[C@@H](CC(C)C)C(=O)N[C@@H](CC(C)C)C(=O)N[C@@H](CCCCN)C(=O)N[C@@H](CCCCN)C(N)=O)[C@@H](C)CC)[C@@H](C)CC)[C@@H](C)O)[C@@H](C)O | broth microdilution | KCTC 1682, Mueller-Hinton broth | 24 h, 37 °C | – | 4 µM |

Excerpt of the above:
| SMILES | test | system | conditions | how to read | MIC |
| --- | --- | --- | --- | --- | --- |
| CC(C)(O/N=C(\C(=O)N[C@@H]1C(=O)N2C(C(=O)[O-])=C(C[n+]3ccccc3)CS[C@H]12)c1csc(N)n1)C(=O)O | – | DH5α cloned blaKPC-144 | – | – | 32 µg/mL |
